Measured values of several laboratories.
± marks the error that the study gave.
UCHL1: Ubiquitin carboxyl-terminal hydrolase isozyme L1 (UCHL1, Homo sapiens, UniProt P09936)
Sequence of UniProt P09936 (whole entry, looked up): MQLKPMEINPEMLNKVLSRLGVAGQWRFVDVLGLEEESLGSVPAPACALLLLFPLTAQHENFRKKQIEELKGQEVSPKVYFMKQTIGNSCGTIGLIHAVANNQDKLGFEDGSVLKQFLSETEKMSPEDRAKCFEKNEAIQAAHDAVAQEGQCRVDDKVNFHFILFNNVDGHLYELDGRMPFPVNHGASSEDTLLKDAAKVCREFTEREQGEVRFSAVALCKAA

Compound	target or system	assay	setting	scale	measurement	value
CCOC(=O)/C=C\C(=O)OCC	HepG2	high content imaging, measured: cell count	24 h, representative mode		point of departure	22.4 µM
COc1ccc(-n2nc(C(C)=O)s/c2=N\N=C(/C)c2ccc(NC(=O)c3ccccc3)cc2)cc1	HepG2		1.25 µM		viability	25.6%
CC(=O)c1nn(-c2ccc(C)cc2)/c(=N/N=C(\C)c2ccc(NC(=O)c3ccccc3)cc2)s1	HepG2	MTT	10 µM		cytotoxicity	93.2%
Nc1ccn([C@H]2CC[C@@H](CO)O2)c(=O)n1	HepG2	qPCR	0.2 µM, 10 days, 1	baseline: untreated	mitochondrial DNA content	76.9 ± 12.8%
N#CC(=Cc1ccc(OC(F)F)cc1)C(=O)Nc1nccs1	UCHL1	covalent, intact protein LC-MS	12.5 µM		labelling	21.3%
COc1ccc(NC(=O)c2c(Nc3ccccc3)sc(C(=O)NN=Cc3ccc(OC)c(O)c3)c2NC(C)=O)cc1	HepG2	flow cytometry	IC50, 24 h		cells in G2/M	19.4 ± 2.24%
CCCCNC(=O)C(C#N)=Cc1c(Cl)cccc1Cl	UCHL1	covalent, intact protein LC-MS	12.5 µM		labelling	9.02%
CN(CCOc1ccc(CC2SC(=O)NC2=O)cc1)c1ccccn1 (stereo not drawn)	HepG2	mitochondrial membrane potential, TMRE staining	24 h		representative mode point of departure	56.2 µM
COc1ccc(NC(=O)c2c(Nc3ccccc3)sc(C#N)c2NC(=O)CNc2ccc(Cl)cc2)cc1	HepG2	annexin V-FITC/PI	concentration not given		viable cells	81.4 ± 9.3%
CC(=O)Nc1ccc(/C(C)=N/N=c2\sc(C(C)=O)nn2-c2ccc(C)cc2)cc1	HepG2	MTT	0.312 µM		cytotoxicity	0.0454%
CCc1ccc(CCOc2ccc(CC3SC(=O)NC3=O)cc2)nc1 (stereo not drawn)	HepG2	CellTiter-Glo, measured: cellular ATP	24 h, distribution mode 1		point of departure	4.47 µM
CCOC(=O)c1nn(-c2cccc(Cl)c2)/c(=N/N=C(\C)c2ccc(NC(=O)c3ccccc3)cc2)s1	HepG2	MTT	0.312 µM		cytotoxicity	96.5%
CC(C)(C)c1cc(O)ccc1O	HepG2	extracellular flux, measured: oxygen consumption rate	1 h, representative mode		point of departure	16.2 µM
CC(=O)c1nn(-c2ccccc2Cl)/c(=N/N=C(\C)c2ccc(NC(=O)c3ccccc3)cc2)s1	HepG2	MTT	1.25 µM		cytotoxicity	94.2%
CC(=O)c1nn(-c2ccc(Cl)cc2)/c(=N/N=C(\C)c2ccc(NC(=O)c3ccc(Cl)cc3)cc2)s1	HepG2		2.5 µM		toxicity	8.04%
